Measurements pooled from the literature.
Each numbered part is a random draw from the data of one study; scales do not carry over between parts. Changes are numbered by the printed parent chain.

Series 1
Target: CCNB2, cyclin fold, Cln2 fusion (human)
Technique: yeast growth competition, sequencing
Medium: yeast
Setting: weak parent motif
Reference: not given
Reading: higher = stronger binding
Quantity: normalised enrichment score
Starting sequence: PKN2 docking peptide (human); VSAVQKLDFSDTM; partner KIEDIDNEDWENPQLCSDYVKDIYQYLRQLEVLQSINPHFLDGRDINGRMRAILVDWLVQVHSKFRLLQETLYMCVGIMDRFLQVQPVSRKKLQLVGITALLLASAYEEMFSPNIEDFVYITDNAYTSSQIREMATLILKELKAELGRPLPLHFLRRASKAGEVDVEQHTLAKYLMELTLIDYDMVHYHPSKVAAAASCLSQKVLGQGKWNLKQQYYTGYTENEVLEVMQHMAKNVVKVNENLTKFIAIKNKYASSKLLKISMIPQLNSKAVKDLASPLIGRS
K6Y: -0.569
S10F: -0.278
S10N: -0.423
V1M: 0.0416

Series 2
Target: Interferon regulatory factor 3, full length, phosphomimetic (IRF3, Homo sapiens, UniProt Q14653, residues 1-427, S386D/S396D/S398D/S402D/T404D/S405D)
Sequence of UniProt Q14653 (whole entry, unmodified, looked up): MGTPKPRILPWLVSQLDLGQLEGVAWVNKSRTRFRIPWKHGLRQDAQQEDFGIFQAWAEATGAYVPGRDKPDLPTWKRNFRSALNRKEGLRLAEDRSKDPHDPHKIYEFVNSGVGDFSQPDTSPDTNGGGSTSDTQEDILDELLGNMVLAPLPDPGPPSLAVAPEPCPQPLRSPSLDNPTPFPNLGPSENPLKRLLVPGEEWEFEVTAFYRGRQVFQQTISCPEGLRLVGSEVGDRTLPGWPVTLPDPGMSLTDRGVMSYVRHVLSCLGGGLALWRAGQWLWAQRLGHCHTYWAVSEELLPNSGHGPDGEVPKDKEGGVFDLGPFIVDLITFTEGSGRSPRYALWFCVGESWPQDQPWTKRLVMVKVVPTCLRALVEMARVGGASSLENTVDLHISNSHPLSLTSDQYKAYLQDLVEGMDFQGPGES
Technique: protein-binding microarray
Molecule type: double-stranded DNA, one strand shown
Medium: in vitro
Tested at: 2540 nM top
Setting: 60-bp whole probe
With: salmon DNA 0.4 mg/ml
Reference: random background probes
Reading: higher = stronger binding
Quantity: fitted relative affinity
Shared flanks, not repeated: GCCTAGCAC … GTCTTGATTCGCTTGACGCTGCTG
GACGATCTCAGATTCGAGACGTGCTAG: 1.07 z-score
TTAGGACTGGGTATCGGTTCGTGCTAG: 1.2 z-score
GACGATTTCGGTTTCGGGACGTGCTAG: 7.22 z-score
GGCGATATCAGTCTCGAGACGTGCTAG: 0.748 z-score
TCATGTTGCAAATATTGCACTGTGCTA: 0.249 z-score

Series 3
Target: RING finger protein unkempt homolog, zinc fingers 1-6, GST-SBP tag (UNK, Homo sapiens, UniProt Q9C0B0, residues 30-357)
Sequence of UniProt Q9C0B0 (30-357, looked up): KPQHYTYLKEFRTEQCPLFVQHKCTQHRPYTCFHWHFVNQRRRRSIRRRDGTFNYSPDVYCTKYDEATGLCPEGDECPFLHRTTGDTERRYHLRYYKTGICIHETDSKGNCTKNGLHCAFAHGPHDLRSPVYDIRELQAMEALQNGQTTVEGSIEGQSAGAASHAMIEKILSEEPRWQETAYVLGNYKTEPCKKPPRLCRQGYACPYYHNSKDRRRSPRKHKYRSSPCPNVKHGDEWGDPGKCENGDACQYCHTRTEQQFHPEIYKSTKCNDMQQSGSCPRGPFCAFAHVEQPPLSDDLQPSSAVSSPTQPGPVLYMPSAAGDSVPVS
Technique: RNA Bind-n-Seq
Molecule type: RNA
Medium: in vitro
Tested at: not given
Setting: RNA with constant flanks, human-mouse chimeric sites, ends assumed
Reference: input RNA pool
Reading: higher = stronger binding
Quantity: bound/input enrichment
GGGAGUUCUACAGUCCGACGAUCUGGCGCCUGCGCUCCCCACUCGUGUUUUUAAGUGUAUUUUUAUAAGAUACAUGUAUUUACAAUUGAGCUUUUGUUACUAUAAUACUGAAUGCUACUGCAAUAUUAUGAAAAUGUUUCAAUCAACAGAGGAUUGAGCAUCA: 0.177 ratio
GGGAGUUCUACAGUCCGACGAUCAAAUCAUGUGUGUCCAAUAUUGAAAGUGCUUUAUCUACACUCCAGUAUGUAAGCAGCAUAGUAGUUUCUUUAGAGAAUAGGUCAGCCAUUGUAAAGUACAAUGCAAGCUUAGUCACUCCACAACAGAGGAUUGAGCAUCA: 9.1 ratio
GGGAGUUCUACAGUCCGACGAUCACUCAGAGAUCCACCUCCCAAAGUGCUCUGGAGCUCUGUGUGGCCACCACACCUAACUUGAUGGAUAUUUUAUAAAGUUAAUAUGAAUCUUCCUGUUCGUCCAGGGAAGAAAGAUUUGUUCAACAGAGGAUUGAGCAUCA: 0.602 ratio
GGGAGUUCUACAGUCCGACGAUCGCUCCUCCCCGCUCUGCAGCCUGGGGACACUGGGCUGGGACCAGAAUCCAGCUUUCUUUUAAUAGUGUAUAUUUUUUUGUAUCCCGUGACAUUUCAUUUUUUUUAAAUAGUGUAUUUUUUCAACAGAGGAUUGAGCAUCA: 65.1 ratio

Further values, each from its own experiment
PhoQ, residues 284 288 289 292 302 303 MLMVEA  fold induction (PhoP, residues 12 14 15 18 19 LWHVM (Escherichia coli, UniProt P23836); Sort-seq, item: YFP reporter; E. coli; PhoQ-PhoP variant library, with: 10 µM Mg2+; reference: high Mg2+ state, higher = stronger signaling): 3.54
